Results from different studies.
Numbered parts are unrelated; each lists some results of a single study. Substitutions count along the parent as printed.

Block 1
Target: CCNA1, cyclin fold, Cln2 fusion (human)
Technique: yeast growth competition, sequencing
Sample: yeast
Notes: weak parent motif
Relative to: not given
Reading: higher = stronger binding
Quantity: normalised enrichment score
Parent: RBL1 docking peptide (human); GSAKRRLFGEDPP; partner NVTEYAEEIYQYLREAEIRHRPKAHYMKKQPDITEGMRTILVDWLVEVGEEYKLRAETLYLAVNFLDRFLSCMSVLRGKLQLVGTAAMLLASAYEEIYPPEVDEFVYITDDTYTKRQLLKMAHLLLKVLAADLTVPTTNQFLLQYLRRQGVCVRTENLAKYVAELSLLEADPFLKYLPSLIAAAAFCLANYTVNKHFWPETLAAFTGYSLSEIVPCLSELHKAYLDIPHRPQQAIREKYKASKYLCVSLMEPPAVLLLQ
R6Q: 0.162
G1E: 0.36
P13H: 0.977
F8S: 0.141
P12N: 0.241
D11M: 0.351
A3K: 0.488
A3E: 0.306
R5L: 0.603
P12I: 0.484
A3S: 0.217
S2R: 0.652
K4T: 0.528
R5M: 0.324
S2N: 0.433
D11K: 0.584
R6L: 0.162

Block 2
Target: Sal-like protein 4, full length isoform B (SALL4, Homo sapiens, UniProt Q9UJQ4-2, residues 1-616)
Technique: universal PBM
Form: double-stranded DNA, one strand shown
Sample: in vitro
Tested at: not given
Notes: 8-mer, flanks averaged, mean of replicates
Reading: higher = stronger binding
Quantity: E-score
CCTAGTAA: 0.0114
ATTCATCC: 0.157
ATAAGCTG: 0.14
ATGCGTCC: -0.216
TGAGCCAA: 0.0849
AATATTAG: 0.426
CGCAACGC: -0.213
CCTGTGAG: -0.0814
ATAATAGC: 0.262
ACAATGGA: 0.19
CAACTGAC: -0.111
ATTCCTCG: -0.0812
CCTTTCCA: -0.0224
CGTTTCGA: -0.122
CTGCTTGA: -0.106
CGCACGGA: -0.133
AATCGAAC: 0.0439
AGCGTGGC: -0.183
ACCCTTTA: 0.106
CTCATCTA: 0.0754
CCGACAGA: -0.141
GATTATAA: 0.331
CATGTCAC: 0.088

Block 3
Molecule: PhoQ, residues 284 288 289 292 302 303 AAQSYM
Technique: Sort-seq
Item: YFP reporter
Sample: E. coli
Notes: PhoQ-PhoP variant library
Added: 10 µM Mg2+
Relative to: high Mg2+ state
Reading: higher = stronger signaling
Quantity: fold induction
PhoP, residues 12 14 15 18 19 HHYTI (Escherichia coli, UniProt P23836): 1.09
PhoP, residues 12 14 15 18 19 AYFRS (Escherichia coli, UniProt P23836): 7.95
PhoP, residues 12 14 15 18 19 SFCSL (Escherichia coli, UniProt P23836): 19.8

Block 4
Target: RNA binding protein fox-1 homolog 2, RRM domain, GST-SBP tag (RBFOX2, Homo sapiens, UniProt O43251-10, residues 100-194)
Technique: RNA Bind-n-Seq
Form: RNA
Sample: in vitro
Tested at: 365 nM
Notes: natural RNA segment, single round, ends assumed
Relative to: no-protein control
Reading: higher = stronger binding
Quantity: RBNS enrichment (R)
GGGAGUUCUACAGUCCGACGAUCCUUCUGUUCCAGGUGCUGUUCGAGCUGUUAGAACCCUUAGGCUUGACAGCUUUGUGAGUUAUUAUUGAAAAAUGAGGAUUCCAAGAGUCAGAGGAGUUUGAUAAUGUGCAUGGAAUUCUCGGGUGCCAA: 19.8
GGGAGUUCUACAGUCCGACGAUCGCCUGGAAGAUUCAGGAGCCUGGGCGGCCUUCGCUUACUCUCACCUGCUUCUGAGUUGCCCAGGAGACCACUGGCAGAUGUCCCGGCGAAGAGAAGAGACACAUUGUUGGUGGAAUUCUCGGGUGCCAA: 0.386
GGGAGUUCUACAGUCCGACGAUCAUUACUUGGUACAAUAAUUAUUGUAAUUAAGAGAUGUAGCCUUUAUUAAAAUUUUAUAUUUUUCAAACACUGGCCUCGUCUUUGAAUCCCCAGGGUGGGAACAGGGCCGAUGGAAUUCUCGGGUGCCAA: 0.38
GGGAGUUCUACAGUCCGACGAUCUGUGUUUUUCUUUUGGCUAAACUUCUUUUGGAAGUUGGUAAGUUCAGCCAAGGUUUUACAGGCCCUGAUGUCUGUUCUUCUAAAUGGUUUAAGUAAUUGGGACUCUAGCAUGGAAUUCUCGGGUGCCAA: 7.18
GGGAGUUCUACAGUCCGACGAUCGGUUGUUAAGUGUUCUCUCUUUGCUUCCGUUUACUGAGUUUUCAAAGGUUUGUGGGAAAAUGUAGGUGAUUUAGAGAGAACCUUGUGUAGUUUUUCUUACGACUCAGACAUGGAAUUCUCGGGUGCCAA: 1.83
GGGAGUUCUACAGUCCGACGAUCGUAUGAUGCUUGCUUUAUGCCAUAGCCAUCUAUAUUGUAAUUUAUCUAUACAAUUAAACAAAUUUAAUGAACCCUAUGAAUUAUUCUUUGAUGUGUUUGUUUUUGUAAGAUGGAAUUCUCGGGUGCCAA: 2.65
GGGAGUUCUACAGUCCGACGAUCGACUCUGUAUAAAGAAAGUGCUGGACUUUUCCUGAAAGCUGCAAAAAAAUGGUUUAGAUAUAUUUAUAAUAAACUGACUUAAGAGUUUUCUAUAAGAAGAAAAUUAAGACUGGAAUUCUCGGGUGCCAA: 0.789
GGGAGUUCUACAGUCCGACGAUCCCCUCAUCGUGGUCUGUGCCAUGUCCCGUCUCUAUGGUGGUUGAGGAGAAAGGCGGGGAAGCUUCCUCAGCCUUGCAGAUAUGUGUGGCAUUUACUAGCCAGAGCUCUGAUGGAAUUCUCGGGUGCCAA: 0.437
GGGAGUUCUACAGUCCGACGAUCAAUAUUGUAAGAAUAACUCAUAUGGAAGUUCAAGCUAUUUUUAUACUAUAAUAGAGUUAUUUAAUUUUAAUUUGUUGAAUUAUUAGUUACCACUGUCAUUUCUUCAGCUAUGGAAUUCUCGGGUGCCAA: 0.663
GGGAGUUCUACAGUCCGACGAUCCUGUGUUACUCAUGUACAUUGGUCUUUCUACAUAGUUAUUCUAUCACUGGCAAUAUUUGUUCUGGUUUAGUGUUCUGUAUUUUAAGGUGUACGUAUCAUUUCUAAUUUUAUGGAAUUCUCGGGUGCCAA: 0.492
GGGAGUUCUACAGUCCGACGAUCAAGAAGAGACGAUGCCUGGACAAUGUCUUAUACAUAGGGAACAGAGAGGGAAUCAGAGGUGGCUUAGUUCCCUGAAGACAGCCUUAUGCGCUUAAUCCCUGCCUUUGAAAUGGAAUUCUCGGGUGCCAA: 0.647
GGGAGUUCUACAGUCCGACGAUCACAGCCUCAGCCGGGGCCACCAGCACUGCUGCCACUUCUUCCAGCCCCAGCCAAAGGCGUGGCUGUCAGGGCUGGGCCCUGUAGUGCUGGACUCUCCCGGGCCACAAUAGUGGAAUUCUCGGGUGCCAA: 0.403

Block 5
Target: Fragile X messenger ribonucleoprotein 1, C-terminal low-complexity region (Fmr1, Mus musculus, UniProt P35922)
Technique: RNA Bind-n-Seq
Form: RNA
Sample: in vitro
Tested at: 200 nM
Notes: whole 134-nt RNA, ends assumed
Added: 150 mM KCl
Relative to: input library
Reading: higher = stronger binding
Quantity: log2 enrichment
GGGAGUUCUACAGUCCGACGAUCGAGAGCGAGGUGGCUUCAAUAAGCCUGGUGGUAAGUUUUUGAGUAUUACCAUAGAUAGUGUUUAAAAAAAAAUGCAGUCAGUUUUUAGAAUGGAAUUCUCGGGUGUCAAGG: -0.471
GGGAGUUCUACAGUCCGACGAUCUUCAAAGCGUUCGAAUGAGGAGACUGAUGACUAUGGGAAGGCGCAGGUAGCCAAAAGCAGCAGCAAGGAAUCCAGGUCAUCCAAGCUCCAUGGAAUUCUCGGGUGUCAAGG: -1.76
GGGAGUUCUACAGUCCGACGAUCGGCACCCUUUGAAGGGGAGGAUGAAGAUGAACUCUUCCAAUCCAUCAUGGAACACAACGUAGCCUAUCCCAAGUCUAUGUCCAAGGAAGCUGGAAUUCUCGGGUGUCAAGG: -0.0813
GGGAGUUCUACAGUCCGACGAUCAGUCCUGUGCUACACAUCGUAUGUACCGAAUCGGGAGGGAAAAAGGGAAAAAAAGGGAAAGUAUUAUGUUACGCCGUUCGGAUCUGCACUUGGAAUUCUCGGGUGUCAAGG: 0.0904
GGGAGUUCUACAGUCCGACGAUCCCUGUGCUACACAUCGUAUGUACCGAAUCGGGGAAAAAAGGAAAAAAGGGGAAAAAAGGGGAAAGUAUUAUGUUACGCCGUUCGGAUCUGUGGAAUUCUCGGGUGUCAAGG: -0.555
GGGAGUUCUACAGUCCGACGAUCCACAGACAACACGCACCCACACAGACACAAAAGGAAGGGGUUGGGAUGGGGACAGGGUGCACAGCAGGGCGGGGUAGGACCCCAGCCCCUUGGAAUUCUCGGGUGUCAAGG: 1.2
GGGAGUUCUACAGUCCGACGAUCUGGCCCUGGUGGCAUGCGGGGAGGAAGAGGUGGCCUCAUGGAUCGUGGUGGUCCCGGUGGAAUGUUCAGAGGUGGCCGUGGCGGAGACAGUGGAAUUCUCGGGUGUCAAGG: 0.117
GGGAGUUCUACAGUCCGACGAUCUUUCACUUCCAGCCAGCUGUGAAGAAGGUGAGCUUGCCUUCCAUCUUCCCCCCUAUCCGCCGCGUAUCUCCGUCGUCUGCAAGCGCGUGAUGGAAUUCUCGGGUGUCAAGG: 0.11
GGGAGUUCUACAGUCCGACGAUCCCUUUUUGAGAAGGCCGGACCCAUUUGGGAUCUACGUCUUAUGAUGGAUCCACUGUCCGGUCAGAAUAGAGGGUAUGCAUUUAUCACCUUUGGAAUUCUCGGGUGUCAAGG: -1.19
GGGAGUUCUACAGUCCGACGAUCUCAAGUCCUGUGCUACACAUCGUAUGUACCGAAUCGGGGUUUGGUUUGGUUUGGAAAGUAUUAUGUUACGCCGUUCGGAUCUGCACUUCCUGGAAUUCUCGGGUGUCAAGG: 0.159
